Measured values collected from several papers.
Each numbered part is a random draw from the data of one study; scales do not carry over between parts. Several values in a cell are separate wells, animals, samples, runs or records.
Chain of UniProt Q9P2K8 (whole entry, unmodified, looked up): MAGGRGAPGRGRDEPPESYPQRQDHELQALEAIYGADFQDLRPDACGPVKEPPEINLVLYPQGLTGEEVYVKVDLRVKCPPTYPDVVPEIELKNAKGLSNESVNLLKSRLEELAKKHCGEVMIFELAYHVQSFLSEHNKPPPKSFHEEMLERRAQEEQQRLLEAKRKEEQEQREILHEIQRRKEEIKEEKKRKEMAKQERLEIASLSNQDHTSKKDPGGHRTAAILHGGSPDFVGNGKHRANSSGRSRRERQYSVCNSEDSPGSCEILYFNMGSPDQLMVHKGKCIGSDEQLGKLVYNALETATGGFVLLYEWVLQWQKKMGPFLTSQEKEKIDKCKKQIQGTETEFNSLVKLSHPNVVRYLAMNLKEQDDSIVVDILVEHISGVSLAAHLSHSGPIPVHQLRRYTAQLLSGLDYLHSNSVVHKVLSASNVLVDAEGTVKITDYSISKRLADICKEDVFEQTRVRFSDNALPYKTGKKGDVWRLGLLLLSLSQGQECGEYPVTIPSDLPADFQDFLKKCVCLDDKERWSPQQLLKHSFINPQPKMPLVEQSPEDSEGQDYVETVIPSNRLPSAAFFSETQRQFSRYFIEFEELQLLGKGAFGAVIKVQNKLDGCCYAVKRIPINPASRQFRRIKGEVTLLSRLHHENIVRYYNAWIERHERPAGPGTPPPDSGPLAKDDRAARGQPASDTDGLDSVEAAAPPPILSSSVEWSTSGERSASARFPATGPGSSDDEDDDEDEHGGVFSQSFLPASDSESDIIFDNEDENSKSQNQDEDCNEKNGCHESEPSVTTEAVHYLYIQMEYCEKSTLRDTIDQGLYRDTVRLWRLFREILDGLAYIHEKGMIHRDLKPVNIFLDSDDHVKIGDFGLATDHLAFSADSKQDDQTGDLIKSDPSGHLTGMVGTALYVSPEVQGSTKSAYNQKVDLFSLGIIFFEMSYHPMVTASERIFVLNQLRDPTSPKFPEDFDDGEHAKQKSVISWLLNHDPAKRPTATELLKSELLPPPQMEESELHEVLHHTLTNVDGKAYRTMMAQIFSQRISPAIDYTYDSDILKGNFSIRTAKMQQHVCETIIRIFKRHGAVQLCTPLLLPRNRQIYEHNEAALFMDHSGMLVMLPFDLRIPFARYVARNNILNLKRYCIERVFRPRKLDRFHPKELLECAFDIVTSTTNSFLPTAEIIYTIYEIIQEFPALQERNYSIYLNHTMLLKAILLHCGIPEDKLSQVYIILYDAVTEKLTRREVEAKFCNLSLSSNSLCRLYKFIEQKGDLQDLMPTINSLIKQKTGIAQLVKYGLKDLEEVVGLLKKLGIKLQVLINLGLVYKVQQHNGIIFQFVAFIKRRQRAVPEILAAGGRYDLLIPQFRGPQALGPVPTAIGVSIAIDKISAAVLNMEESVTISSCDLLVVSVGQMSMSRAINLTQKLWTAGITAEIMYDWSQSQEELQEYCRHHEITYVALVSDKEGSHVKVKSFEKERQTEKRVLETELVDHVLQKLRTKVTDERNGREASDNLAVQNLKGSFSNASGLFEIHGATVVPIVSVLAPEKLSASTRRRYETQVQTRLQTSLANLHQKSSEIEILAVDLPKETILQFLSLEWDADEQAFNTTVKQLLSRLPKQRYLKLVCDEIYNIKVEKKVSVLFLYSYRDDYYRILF
Chain of UniProt Q9BRS2 (whole entry, looked up): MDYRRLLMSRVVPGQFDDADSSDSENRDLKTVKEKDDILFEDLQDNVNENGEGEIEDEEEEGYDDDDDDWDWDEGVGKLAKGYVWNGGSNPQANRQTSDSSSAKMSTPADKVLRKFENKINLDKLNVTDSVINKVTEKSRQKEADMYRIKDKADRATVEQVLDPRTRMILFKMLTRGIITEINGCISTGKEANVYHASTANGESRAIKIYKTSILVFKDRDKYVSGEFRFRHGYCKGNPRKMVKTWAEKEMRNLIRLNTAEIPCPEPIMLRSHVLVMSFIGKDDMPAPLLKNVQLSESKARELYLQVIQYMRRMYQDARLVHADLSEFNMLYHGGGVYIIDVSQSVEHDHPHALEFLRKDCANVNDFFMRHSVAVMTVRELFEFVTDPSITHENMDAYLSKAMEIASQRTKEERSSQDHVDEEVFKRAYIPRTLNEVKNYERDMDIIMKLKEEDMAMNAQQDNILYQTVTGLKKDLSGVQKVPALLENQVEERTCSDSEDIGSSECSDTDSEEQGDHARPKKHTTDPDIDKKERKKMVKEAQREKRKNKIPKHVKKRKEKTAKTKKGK
Chain of UniProt Q9NY57 (whole entry, looked up): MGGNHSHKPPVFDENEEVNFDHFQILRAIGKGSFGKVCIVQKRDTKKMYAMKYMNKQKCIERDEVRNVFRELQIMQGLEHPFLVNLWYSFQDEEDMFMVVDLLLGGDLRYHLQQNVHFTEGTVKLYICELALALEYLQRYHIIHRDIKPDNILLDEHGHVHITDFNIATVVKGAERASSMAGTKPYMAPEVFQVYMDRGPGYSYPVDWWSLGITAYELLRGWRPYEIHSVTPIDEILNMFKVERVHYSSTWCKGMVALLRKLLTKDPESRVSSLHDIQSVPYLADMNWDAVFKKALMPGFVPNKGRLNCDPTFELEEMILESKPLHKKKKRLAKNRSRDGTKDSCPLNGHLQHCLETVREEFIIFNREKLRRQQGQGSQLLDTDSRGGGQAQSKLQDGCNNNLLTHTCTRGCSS
Chain of UniProt Q9BQI3 (whole entry, looked up): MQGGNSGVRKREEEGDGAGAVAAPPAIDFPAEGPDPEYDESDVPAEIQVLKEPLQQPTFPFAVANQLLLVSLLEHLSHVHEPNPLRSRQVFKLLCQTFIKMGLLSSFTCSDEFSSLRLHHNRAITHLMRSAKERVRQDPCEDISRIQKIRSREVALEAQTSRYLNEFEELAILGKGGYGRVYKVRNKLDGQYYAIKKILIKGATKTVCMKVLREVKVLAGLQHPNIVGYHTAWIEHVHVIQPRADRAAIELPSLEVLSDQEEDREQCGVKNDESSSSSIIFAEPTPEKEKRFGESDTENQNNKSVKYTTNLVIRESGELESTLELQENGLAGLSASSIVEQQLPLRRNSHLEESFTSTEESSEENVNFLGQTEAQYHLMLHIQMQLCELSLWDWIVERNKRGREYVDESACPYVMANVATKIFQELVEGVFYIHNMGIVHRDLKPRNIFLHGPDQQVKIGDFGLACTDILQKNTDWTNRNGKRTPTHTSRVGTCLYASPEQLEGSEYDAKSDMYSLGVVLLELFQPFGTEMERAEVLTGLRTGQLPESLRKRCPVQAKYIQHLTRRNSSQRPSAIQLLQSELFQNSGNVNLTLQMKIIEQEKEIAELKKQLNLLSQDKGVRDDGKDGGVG
Chain of UniProt P00519 (whole entry, unmodified, looked up): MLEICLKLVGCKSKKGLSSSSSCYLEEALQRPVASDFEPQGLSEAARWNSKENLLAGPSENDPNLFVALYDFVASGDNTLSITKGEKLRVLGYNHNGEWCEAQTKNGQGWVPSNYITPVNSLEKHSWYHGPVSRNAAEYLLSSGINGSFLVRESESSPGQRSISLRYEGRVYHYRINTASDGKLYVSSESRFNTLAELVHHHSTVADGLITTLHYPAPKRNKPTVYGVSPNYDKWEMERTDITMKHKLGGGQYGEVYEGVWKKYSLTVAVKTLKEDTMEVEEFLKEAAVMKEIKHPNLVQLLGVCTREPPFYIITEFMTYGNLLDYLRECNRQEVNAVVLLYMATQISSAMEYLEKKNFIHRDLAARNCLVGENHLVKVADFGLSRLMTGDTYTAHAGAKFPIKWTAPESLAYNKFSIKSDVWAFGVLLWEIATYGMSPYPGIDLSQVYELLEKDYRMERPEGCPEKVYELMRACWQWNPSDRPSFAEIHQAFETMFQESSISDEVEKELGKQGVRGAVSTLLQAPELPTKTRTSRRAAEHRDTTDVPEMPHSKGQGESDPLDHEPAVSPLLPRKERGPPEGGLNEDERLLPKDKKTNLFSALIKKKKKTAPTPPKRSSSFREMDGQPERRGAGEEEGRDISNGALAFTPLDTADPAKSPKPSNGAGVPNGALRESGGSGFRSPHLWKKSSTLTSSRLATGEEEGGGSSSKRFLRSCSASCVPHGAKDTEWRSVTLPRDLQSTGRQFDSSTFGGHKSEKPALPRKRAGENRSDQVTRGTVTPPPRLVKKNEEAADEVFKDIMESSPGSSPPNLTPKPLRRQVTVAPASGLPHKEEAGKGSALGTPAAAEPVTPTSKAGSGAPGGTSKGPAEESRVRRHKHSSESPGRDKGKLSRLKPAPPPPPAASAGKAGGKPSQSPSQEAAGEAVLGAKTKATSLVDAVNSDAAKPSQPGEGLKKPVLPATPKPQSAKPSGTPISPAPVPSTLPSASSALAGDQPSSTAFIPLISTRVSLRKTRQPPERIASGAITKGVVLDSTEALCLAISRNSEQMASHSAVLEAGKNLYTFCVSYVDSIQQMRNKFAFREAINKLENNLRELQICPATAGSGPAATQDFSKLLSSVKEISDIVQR
Chain of UniProt P28482 (whole entry, looked up): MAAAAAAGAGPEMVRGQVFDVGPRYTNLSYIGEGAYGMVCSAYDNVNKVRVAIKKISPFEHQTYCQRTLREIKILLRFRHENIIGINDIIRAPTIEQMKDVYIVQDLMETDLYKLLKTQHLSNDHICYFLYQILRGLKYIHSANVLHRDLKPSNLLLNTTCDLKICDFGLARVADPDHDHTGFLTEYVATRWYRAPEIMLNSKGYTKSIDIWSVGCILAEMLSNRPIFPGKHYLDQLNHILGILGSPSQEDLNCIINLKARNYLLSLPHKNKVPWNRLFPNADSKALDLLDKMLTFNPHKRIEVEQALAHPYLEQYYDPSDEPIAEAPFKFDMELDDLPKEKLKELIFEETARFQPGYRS

Series 1
SMILES: O=C(O)c1cc(-c2ccc(C3CCNCC3)cc2)c2ccc(-c3ccc(C(F)(F)F)cc3)cc2c1
Concentration: 1 µM
EPHA4 (Homo sapiens, UniProt P54764); cell-free assay, competition with immobilised ligand — remaining binding: 100%.
It gave 100% for remaining binding (MAP3K12 (Homo sapiens, UniProt Q12852); cell-free assay, competition with immobilised ligand).
For MAK (Homo sapiens, UniProt P20794); cell-free assay, competition with immobilised ligand: remaining binding read 100%.
STK32B (Homo sapiens, UniProt Q9NY57); cell-free assay, competition with immobilised ligand — remaining binding: 100%.
It gave 80% for remaining binding (PLK4 (Homo sapiens, UniProt O00444); cell-free assay, competition with immobilised ligand).
It gave 100% for remaining binding (Tyrosine-protein kinase ABL1, non-phosphorylated (ABL1, Homo sapiens, UniProt P00519, F317I); binding, competition with immobilised ligand).
It gave 100% for remaining binding (CDC42BPG (Homo sapiens, UniProt Q6DT37); competition binding).
EIF2AK1 (Homo sapiens, UniProt Q9BQI3); cell-free assay, competition with immobilised ligand — remaining binding: 98%.
It gave 97% for remaining binding (MAPK1 (Homo sapiens, UniProt P28482); cell-free assay, competition with immobilised ligand).
It gave 100% for remaining binding (GRK1 (Homo sapiens, UniProt Q15835); cell-free assay, competition with immobilised ligand).
It gave 100% for remaining binding (eIF-2-alpha kinase GCN2, C-terminal kinase domain (EIF2AK4, Homo sapiens, UniProt Q9P2K8, S808G); cell-free assay, competition with immobilised ligand).
For TLK2 (Homo sapiens, UniProt Q86UE8); cell-free assay, competition with immobilised ligand: remaining binding read 100%.
For RIOK1 (Homo sapiens, UniProt Q9BRS2); cell-free assay, competition with immobilised ligand: remaining binding read 100%.

Series 2
Target: Cyclin-dependent kinase 5, with p35 (CDK5, Homo sapiens, UniProt Q00535)
Chain of UniProt Q00535 (whole entry, looked up): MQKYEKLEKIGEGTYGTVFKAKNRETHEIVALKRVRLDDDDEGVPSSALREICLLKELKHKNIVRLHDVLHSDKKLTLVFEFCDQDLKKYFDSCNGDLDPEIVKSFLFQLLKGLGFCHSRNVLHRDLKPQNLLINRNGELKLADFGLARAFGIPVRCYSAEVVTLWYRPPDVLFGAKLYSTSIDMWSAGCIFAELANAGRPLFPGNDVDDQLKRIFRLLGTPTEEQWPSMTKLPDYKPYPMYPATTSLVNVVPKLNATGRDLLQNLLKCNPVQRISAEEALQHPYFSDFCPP
Observed: enzyme activity
Action: inhibitor
Concentration: 0.5 µM
Baseline: control
The remaining activity of O=C(c1ccccc1)c1ccc(N2CCOCC2)cc1O is reported as 97%.
CCN(CC)CCCCN1c2ccccc2Oc2ccc(Cl)cc21 has a remaining activity of 90.3%.
The remaining activity of CC(C)n1cnc2c(Nc3cccc(Cl)c3)nc(NCCO)nc21 is reported as 22.7%.
O=C(O)/C=C/c1cc(Br)c(Br)c(Br)c1Br gave a remaining activity of 92.4%.
With Clc1ccc(Nc2nnc(Cc3ccncc3)c3ccccc23)cc1 the remaining activity was 97.2%.
O=C1c2ccccc2-c2nc3nnnn3nc21 gave a remaining activity of 79.1%.
With C[C@@H](N)[C@H]1CC[C@H](C(=O)Nc2ccncc2)CC1 the remaining activity was 96.6%.
With O=c1c(-c2ccc(F)cc2)c(-c2ccncc2)[nH]n1-c1ccc(Cl)cc1 the remaining activity was 104%.
O=C1NC(=O)/C(=C/c2ccc3c(c2)OC(F)(F)O3)S1 has a remaining activity of 103%.
CNc1cc2c(Nc3cccc(Br)c3)ncnc2cn1 gave a remaining activity of 100%.

Series 3
Cell line: mouse MPNST tumor cells
Method: high-content immunofluorescence imaging
Refers to: nuclear SOX9
Concentration: 10 µM
Time: 12 h
Setting: mean of 2 replicates
Baseline: DMSO control
Direction: higher = more nuclear SOX9
CNc1nc(NCc2ccc(NS(C)(=O)=O)cc2Cl)cc(-c2ccccn2)n1 — result for “nuclear SOX9 intensity”: 124 % of DMSO.
CC(C)c1cc(C(C)C)c(CC(=O)NS(=O)(=O)Oc2c(C(C)C)cccc2C(C)C)c(C(C)C)c1: “nuclear SOX9 intensity” 103 % of DMSO.
Cn1c(NC[C@@H](N)Cc2ccccc2)nc(-c2ccncc2)c(-c2ccc3ccccc3c2)c1=O: “nuclear SOX9 intensity” 178 % of DMSO.
For O=C(N/N=C/c1ccc([N+](=O)[O-])o1)c1ccc(O)cc1, “nuclear SOX9 intensity” read 99.5 % of DMSO.
For c1ccc(CNc2ncnc3nc[nH]c23)cc1, “nuclear SOX9 intensity” read 118 % of DMSO.
N[C@@H]1CONC1=O: “nuclear SOX9 intensity” 105 % of DMSO and 128 % of DMSO.
C[C@H](NC(=O)CCc1nc2ccccc2c(=O)[nH]1)c1ccccc1 — result for “nuclear SOX9 intensity”: 110 % of DMSO.

Series 4
Cell line: A-375
Concentration: 100 µM
Time: 36 h
For CC(=O)N(O)CCCCCNC(=O)CCC(=O)N(O)CCCCCNC(=O)CCC(=O)N(O)CCCCCN, the viability was 40.9%.
NNc1nncc2ccccc12 gave a viability of 103%.
COCCCN1CCC(NC(=O)c2cc(Cl)c(N)c3c2OCC3)CC1 has a viability of 99%.
With CC(=O)Nc1ccccc1 the viability was 134%.
The viability of N#C/C(=C1/SC[C@@H](c2ccc(Cl)cc2Cl)S1)n1ccnc1 is reported as 6.16%.
With CCN1CCN(C(=O)N[C@@H](C(=O)N[C@@H]2C(=O)N3[C@@H]2SC(C)(C)[C@@H]3C(=O)O)c2ccccc2)C(=O)C1=O the viability was 102%.

A few entries again (series 3):
Cn1c(NC[C@@H](N)Cc2ccccc2)nc(-c2ccncc2)c(-c2ccc3ccccc3c2)c1=O: “nuclear SOX9 intensity” 178 % of DMSO.
For O=C(N/N=C/c1ccc([N+](=O)[O-])o1)c1ccc(O)cc1, “nuclear SOX9 intensity” read 99.5 % of DMSO.
For c1ccc(CNc2ncnc3nc[nH]c23)cc1, “nuclear SOX9 intensity” read 118 % of DMSO.
N[C@@H]1CONC1=O: “nuclear SOX9 intensity” 105 % of DMSO and 128 % of DMSO.
